Measurements collected from several papers.
A part holds a random share of what one study measured.
Sequence of UniProt P37173 (whole entry, looked up): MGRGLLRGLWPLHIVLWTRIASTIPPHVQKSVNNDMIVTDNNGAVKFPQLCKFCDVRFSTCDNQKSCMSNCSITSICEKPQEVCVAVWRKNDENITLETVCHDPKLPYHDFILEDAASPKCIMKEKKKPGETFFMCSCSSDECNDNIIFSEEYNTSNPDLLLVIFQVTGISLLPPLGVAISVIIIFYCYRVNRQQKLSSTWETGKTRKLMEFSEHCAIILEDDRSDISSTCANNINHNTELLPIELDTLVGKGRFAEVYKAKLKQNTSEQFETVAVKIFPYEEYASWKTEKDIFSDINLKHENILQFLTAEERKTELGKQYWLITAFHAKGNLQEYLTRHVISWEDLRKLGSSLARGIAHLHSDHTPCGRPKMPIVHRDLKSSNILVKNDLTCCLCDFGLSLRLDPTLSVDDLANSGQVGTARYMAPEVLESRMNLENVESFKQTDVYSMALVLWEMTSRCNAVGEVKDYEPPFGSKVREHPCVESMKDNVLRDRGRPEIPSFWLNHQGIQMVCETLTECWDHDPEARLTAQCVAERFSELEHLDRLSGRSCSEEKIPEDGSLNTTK
Sequence of UniProt Q9UIK4 (whole entry, looked up): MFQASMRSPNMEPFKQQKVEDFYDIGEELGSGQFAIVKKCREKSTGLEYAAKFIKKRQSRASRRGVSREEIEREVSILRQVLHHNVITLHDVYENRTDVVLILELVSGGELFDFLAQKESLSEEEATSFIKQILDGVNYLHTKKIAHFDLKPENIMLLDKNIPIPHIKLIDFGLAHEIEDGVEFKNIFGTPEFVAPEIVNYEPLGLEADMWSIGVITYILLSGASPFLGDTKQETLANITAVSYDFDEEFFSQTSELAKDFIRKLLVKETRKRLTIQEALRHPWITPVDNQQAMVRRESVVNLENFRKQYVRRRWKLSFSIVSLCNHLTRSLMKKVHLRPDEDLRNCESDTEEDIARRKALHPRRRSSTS
Sequence of UniProt Q13976 (whole entry, looked up): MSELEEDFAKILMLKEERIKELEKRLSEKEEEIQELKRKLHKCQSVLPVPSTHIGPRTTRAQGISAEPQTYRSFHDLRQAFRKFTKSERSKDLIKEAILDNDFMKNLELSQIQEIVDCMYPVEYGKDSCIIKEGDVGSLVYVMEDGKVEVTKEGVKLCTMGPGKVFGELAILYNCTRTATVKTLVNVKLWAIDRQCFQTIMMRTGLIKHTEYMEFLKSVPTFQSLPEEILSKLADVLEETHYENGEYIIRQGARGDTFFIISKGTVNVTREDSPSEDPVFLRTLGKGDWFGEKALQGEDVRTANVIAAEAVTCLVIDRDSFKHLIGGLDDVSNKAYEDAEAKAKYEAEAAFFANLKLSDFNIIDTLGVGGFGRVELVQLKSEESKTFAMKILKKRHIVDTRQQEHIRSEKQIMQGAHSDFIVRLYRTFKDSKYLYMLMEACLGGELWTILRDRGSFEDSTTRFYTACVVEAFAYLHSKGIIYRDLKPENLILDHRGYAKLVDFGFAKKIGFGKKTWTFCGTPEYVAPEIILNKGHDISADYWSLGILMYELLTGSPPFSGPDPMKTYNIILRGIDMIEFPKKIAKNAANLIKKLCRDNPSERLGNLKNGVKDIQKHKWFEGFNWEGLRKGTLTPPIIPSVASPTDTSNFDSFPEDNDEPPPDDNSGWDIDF
Sequence of UniProt P05771 (whole entry, looked up): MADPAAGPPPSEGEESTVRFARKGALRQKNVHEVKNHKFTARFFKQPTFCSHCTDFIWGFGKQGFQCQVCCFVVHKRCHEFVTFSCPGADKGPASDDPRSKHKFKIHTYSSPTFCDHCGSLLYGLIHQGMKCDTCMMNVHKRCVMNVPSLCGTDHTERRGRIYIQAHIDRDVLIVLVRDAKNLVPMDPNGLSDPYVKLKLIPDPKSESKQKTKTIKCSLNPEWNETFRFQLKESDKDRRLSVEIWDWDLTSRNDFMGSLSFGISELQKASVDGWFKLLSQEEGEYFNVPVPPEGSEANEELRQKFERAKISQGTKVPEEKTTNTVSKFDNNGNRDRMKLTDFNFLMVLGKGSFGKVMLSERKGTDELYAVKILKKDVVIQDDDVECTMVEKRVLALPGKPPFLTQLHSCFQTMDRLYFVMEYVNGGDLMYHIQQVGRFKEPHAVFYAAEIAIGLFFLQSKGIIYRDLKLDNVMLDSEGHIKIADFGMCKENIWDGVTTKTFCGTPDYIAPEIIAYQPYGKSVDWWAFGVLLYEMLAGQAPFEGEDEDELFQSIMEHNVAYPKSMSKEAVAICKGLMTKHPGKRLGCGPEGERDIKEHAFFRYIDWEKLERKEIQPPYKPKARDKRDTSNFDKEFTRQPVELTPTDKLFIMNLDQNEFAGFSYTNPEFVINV
Sequence of UniProt P51955 (whole entry, looked up): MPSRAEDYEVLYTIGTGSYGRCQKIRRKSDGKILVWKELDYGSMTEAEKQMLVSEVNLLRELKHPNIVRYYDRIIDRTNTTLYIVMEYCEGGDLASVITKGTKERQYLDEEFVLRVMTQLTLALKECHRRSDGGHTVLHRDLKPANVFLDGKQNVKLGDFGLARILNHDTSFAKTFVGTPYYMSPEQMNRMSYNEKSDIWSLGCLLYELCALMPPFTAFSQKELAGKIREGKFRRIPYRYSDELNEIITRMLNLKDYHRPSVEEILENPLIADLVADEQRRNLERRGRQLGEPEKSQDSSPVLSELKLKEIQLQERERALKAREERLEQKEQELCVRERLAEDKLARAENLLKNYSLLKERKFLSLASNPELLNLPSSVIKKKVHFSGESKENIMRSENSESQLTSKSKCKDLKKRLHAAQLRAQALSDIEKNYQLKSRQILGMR
Sequence of UniProt Q13557 (whole entry, looked up): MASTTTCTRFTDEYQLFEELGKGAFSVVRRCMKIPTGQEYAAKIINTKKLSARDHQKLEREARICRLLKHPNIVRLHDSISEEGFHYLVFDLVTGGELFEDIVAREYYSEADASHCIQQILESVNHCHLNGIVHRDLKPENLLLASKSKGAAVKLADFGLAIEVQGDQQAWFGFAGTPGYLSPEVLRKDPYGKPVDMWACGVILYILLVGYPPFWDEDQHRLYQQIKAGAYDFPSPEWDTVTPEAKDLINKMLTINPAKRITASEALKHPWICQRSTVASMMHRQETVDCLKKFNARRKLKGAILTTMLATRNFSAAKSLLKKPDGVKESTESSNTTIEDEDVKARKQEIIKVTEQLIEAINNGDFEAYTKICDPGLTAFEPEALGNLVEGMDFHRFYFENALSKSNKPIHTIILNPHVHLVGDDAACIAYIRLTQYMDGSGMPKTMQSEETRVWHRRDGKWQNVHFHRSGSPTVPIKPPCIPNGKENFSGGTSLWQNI
Sequence of UniProt Q06187 (whole entry, looked up): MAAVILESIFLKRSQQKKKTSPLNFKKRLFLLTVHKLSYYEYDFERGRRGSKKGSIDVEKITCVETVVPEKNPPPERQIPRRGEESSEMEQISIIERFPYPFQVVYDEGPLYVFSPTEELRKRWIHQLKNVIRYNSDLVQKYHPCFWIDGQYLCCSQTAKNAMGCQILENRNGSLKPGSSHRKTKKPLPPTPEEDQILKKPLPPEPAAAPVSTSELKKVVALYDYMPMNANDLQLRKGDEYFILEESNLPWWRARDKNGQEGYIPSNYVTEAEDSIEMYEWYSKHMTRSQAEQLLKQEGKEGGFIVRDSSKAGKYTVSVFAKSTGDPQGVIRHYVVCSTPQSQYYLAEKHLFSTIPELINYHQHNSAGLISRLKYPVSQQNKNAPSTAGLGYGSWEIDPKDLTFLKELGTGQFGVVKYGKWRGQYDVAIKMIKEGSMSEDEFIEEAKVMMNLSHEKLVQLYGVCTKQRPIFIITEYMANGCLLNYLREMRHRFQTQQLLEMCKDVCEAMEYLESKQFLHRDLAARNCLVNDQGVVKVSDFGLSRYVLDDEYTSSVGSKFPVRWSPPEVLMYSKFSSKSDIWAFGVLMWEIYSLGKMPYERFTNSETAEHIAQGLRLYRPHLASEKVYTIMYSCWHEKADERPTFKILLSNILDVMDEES
Sequence of UniProt Q00535 (whole entry, looked up): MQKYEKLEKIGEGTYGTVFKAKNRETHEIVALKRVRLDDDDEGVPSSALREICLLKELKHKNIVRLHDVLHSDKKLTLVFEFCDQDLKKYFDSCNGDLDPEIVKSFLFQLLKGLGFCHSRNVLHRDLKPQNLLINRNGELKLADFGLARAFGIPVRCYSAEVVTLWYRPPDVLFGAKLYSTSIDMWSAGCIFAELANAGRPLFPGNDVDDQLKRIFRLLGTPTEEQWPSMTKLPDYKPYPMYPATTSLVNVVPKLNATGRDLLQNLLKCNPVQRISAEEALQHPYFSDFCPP
Sequence of UniProt O75914 (whole entry, looked up): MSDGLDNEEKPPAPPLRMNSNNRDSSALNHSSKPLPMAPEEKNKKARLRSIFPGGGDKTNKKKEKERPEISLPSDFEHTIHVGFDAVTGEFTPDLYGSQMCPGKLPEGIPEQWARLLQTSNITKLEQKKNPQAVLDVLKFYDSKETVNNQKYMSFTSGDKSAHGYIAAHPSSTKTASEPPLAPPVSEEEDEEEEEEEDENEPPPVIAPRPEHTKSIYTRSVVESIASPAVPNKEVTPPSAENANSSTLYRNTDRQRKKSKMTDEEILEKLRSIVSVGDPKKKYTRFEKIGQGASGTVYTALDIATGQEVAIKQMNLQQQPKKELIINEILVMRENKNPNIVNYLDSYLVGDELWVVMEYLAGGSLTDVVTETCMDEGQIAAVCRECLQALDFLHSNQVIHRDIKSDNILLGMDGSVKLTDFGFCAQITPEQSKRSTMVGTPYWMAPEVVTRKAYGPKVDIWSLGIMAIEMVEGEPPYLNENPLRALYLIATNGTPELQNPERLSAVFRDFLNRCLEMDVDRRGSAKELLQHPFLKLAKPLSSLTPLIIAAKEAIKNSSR

Set 1
Compound: c1ccc(N2CCN(Cc3nc4ccccc4[nH]3)CC2)nc1
Method: competition with immobilised ligand
Tested at: 1 µM
target | observed | remaining binding [%]
PAK3 (Homo sapiens, UniProt O75914) | cell-free assay | 100
MAP3K11 (Homo sapiens, UniProt Q16584) | binding | 100
Ribosomal protein S6 kinase alpha-5, N-terminal kinase domain (RPS6KA5, Homo sapiens, UniProt O75582) | binding | 85
DAPK2 (Homo sapiens, UniProt Q9UIK4) | binding | 86
RIPK1 (Homo sapiens, UniProt Q13546) | binding | 100
SGK1 (Homo sapiens, UniProt O00141) | binding | 100
EGFR (Homo sapiens, UniProt P00533) | cell-free assay | 99
ACVR1 (Homo sapiens, UniProt Q04771) | cell-free assay | 100
TLK1 (Homo sapiens, UniProt Q9UKI8) | cell-free assay | 95
BTK (Homo sapiens, UniProt Q06187) | cell-free assay | 96
TGFBR2 (Homo sapiens, UniProt P37173) | cell-free assay | 88
PIK3CA (Homo sapiens, UniProt P42336, C420R) | cell-free assay | 100
GRK7 (Homo sapiens, UniProt Q8WTQ7) | binding | 100
MAP3K20 (Homo sapiens, UniProt Q9NYL2) | binding | 92
MARK3 (Homo sapiens, UniProt P27448) | binding | 100
FLT3 (Homo sapiens, UniProt P36888, D835V/ITD) | binding | 100

Set 2
Structure (SMILES): N#CC(=C(N)Sc1ccc(N)cc1)c1ccccc1C(F)(F)F
Observed: enzyme activity
Mode: inhibitor
Tested at: 0.5 µM
Reference: control
target | remaining activity [%]
Cyclin-dependent kinase 4, with cyclin D1 (CDK4, Homo sapiens, UniProt P11802) | 106
TGFBR2 (Homo sapiens, UniProt P37173) | 113
STK39 (Homo sapiens, UniProt Q9UEW8) | 94.6
IKBKB (Homo sapiens, UniProt O14920) | 100
MAPK9 (Homo sapiens, UniProt P45984) | 110
NEK2 (Homo sapiens, UniProt P51955) | 94.9
DAPK2 (Homo sapiens, UniProt Q9UIK4) | 112
DAPK1 (Homo sapiens, UniProt P53355) | 104
cGMP-dependent protein kinase 1, isoform beta (PRKG1, Homo sapiens, UniProt Q13976) | 100
TGFBR1 (Homo sapiens, UniProt P36897) | 98.3
MAP3K3 (Homo sapiens, UniProt Q99759) | 97.7
Tyrosine-protein kinase Lyn, isoform B (LYN, Homo sapiens, UniProt P07948) | 98.5
CHEK2 (Homo sapiens, UniProt O96017) | 97.7
CAMKK2 (Homo sapiens, UniProt Q96RR4) | 85.5
STK11 (Homo sapiens, UniProt Q15831) | 102
Protein kinase C beta type, isoform beta-I (PRKCB, Homo sapiens, UniProt P05771) | 93.1
OXSR1 (Homo sapiens, UniProt O95747) | 101
STK10 (Homo sapiens, UniProt O94804) | 88.7
CAMK2D (Homo sapiens, UniProt Q13557) | 93.4
GRK3 (Homo sapiens, UniProt P35626) | 101
IKBKE (Homo sapiens, UniProt Q14164) | 102
Cyclin-dependent kinase 5, with p25 (CDK5, Homo sapiens, UniProt Q00535) | 93.1
PRKACA (Homo sapiens, UniProt P17612) | 109

Set 3
Organism: Sarcocystis neurona
Observed: parasite activity
Tested at: concentration not given
SMILES | activity class
CC(Cc1ccccc1)(NC(=O)CN)c1ccccc1.Cl (centres unmarked) | inactive
CCN(CC)CCNC(=O)c1cc(Cl)c(N)cc1OC.Cl | inactive
C[C@]12C=CC(=O)C=C1CC[C@@H]1[C@@H]2[C@@H](O)C[C@@]2(C)[C@H]1CC[C@]2(O)C(=O)COC(=O)CCC(=O)[O-].[Na+] | inactive
O=C1NC(=O)N(C2CC(O)C(CO)O2)CC1F (centres unmarked) | inactive
C#C[C@]1(O)CC[C@H]2[C@@H]3CCC4=CC(=O)CC[C@@H]4[C@H]3CC[C@@]21C | inactive
N[C@H](Cc1cc(I)c(Oc2ccc(O)c(I)c2)c(I)c1)C(=O)O | inactive
CC1CCN(CCCC(=O)c2ccc(F)cc2)CC1.Cl | inactive
Fc1ccc([C@@H]2CCNC[C@H]2COc2ccc3c(c2)OCO3)cc1.O=C(O)/C=C\C(=O)O | inactive
CCCCC(=O)O[C@H]1CC[C@H]2[C@@H]3CCc4cc(O)ccc4[C@H]3CC[C@]12C | inactive
NC(=O)OCC(COC(N)=O)c1ccccc1.O | inactive

Set 4
Species: mouse
Sample: microsomes or S9
Tested at: 2 µM
Time: 0.5 h
SMILES | remaining compound
CC1=C(Br)C(=O)N(C(C)(C(N)=O)C(C)C)C1=O (centres unmarked) | 54.6%
O=C(Nc1n[nH]c2cc(Br)ccc12)c1[nH]nc2c1CCCC2 | 0.0743%
Cc1cc2occ(CC(=O)N3CCOC4(CCCOC4)C3)c2cc1C(C)C (centres unmarked) | 49.5%
OCC(O)Cn1c(-c2ccc(F)cc2)nc2ccccc21 (centres unmarked) | 76.9%
COc1ccccc1NC(=O)c1cc2c(OC)cccc2[nH]1 | 5.46%
O=c1[nH]nc2c3c(nc(-c4ccncc4)n12)CCCC3 | 69.3%
Cn1c(Nc2ccccc2Cl)cc(=O)n(C)c1=O | 60.2%
O=C(c1c(OCC2CC2)cc(=O)n2c1CCOCC2)N1CCN(c2ncccn2)CC1 | 87.1%
Fc1ccc(Nc2c(-c3ccccc3)nc3ccccn23)cc1 | 17.7%
CC1CCC(NS(=O)(=O)CC(=O)Nc2cc(-c3ccsc3)nn2C)CC1 (centres unmarked) | 39.4%
C1=Cn2nc(/C=C/c3c[nH]c4ccccc34)nc2-c2ccccc2O1 | 32.3%
Cc1cc(C)cc(C(O)CN(C)Cc2cc(Cl)cn2C)c1 (centres unmarked) | 2.26%
Cc1cc(C)c(NC(=O)NCc2ccc3nnn(C4CCC(=O)NC4=O)c(=O)c3c2)c(Br)c1 (centres unmarked) | 21.7%

Repeated from above (set 1):
target | observed | remaining binding [%]
Ribosomal protein S6 kinase alpha-5, N-terminal kinase domain (RPS6KA5, Homo sapiens, UniProt O75582) | binding | 85
ACVR1 (Homo sapiens, UniProt Q04771) | cell-free assay | 100
TGFBR2 (Homo sapiens, UniProt P37173) | cell-free assay | 88
PIK3CA (Homo sapiens, UniProt P42336, C420R) | cell-free assay | 100
EGFR (Homo sapiens, UniProt P00533) | cell-free assay | 99
TLK1 (Homo sapiens, UniProt Q9UKI8) | cell-free assay | 95
GRK7 (Homo sapiens, UniProt Q8WTQ7) | binding | 100
MAP3K20 (Homo sapiens, UniProt Q9NYL2) | binding | 92
